# Measurements from different studies.
# Each numbered part is a random draw from the data of one study; scales do not carry over between parts.

# Block 1
# Target: RNA binding protein fox-1 homolog 2, RRM domain, GST-SBP tag (RBFOX2, Homo sapiens, UniProt O43251-10, residues 100-194)
# Technique: RNA Bind-n-Seq
# Form: RNA
# Medium: in vitro
# Concentration: 365 nM
# Notes: natural RNA segment, single round, ends assumed
# Baseline: no-protein control
# Direction: higher = stronger binding
# Shared flanks, not repeated: GGGAGUUCUACAGUCCGACGAUC … UGGAAUUCUCGGGUGCCAA
# Construct (chain): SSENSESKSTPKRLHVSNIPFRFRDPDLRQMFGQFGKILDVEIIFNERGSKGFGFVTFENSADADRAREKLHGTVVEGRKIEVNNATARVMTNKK
Strand,RBNS enrichment (R)
CAUGUCUAUUUACAUAGUGAAGGUCCAGAAUAAAUGAAAUAAUUUUGCUACCUUGGUGUUGAAACAUAAACUGUGCCGUUGAUAGACCUAGGUAGAAUAGUAGGAUGGCA,0.696
GGGUGCCUCCUCCCCAGGUGGAGGUGCCAGGAAGCUCCCUCCCUCACUGUGGGGCAUUUCACCAUUCAAACAGGUCGAGCUGUGCUCGGGUGCUGCCAGCUGCUCCCAAU,0.364
UUGAUGGCUGGGUCCUUGGGCCUGGCCAGUCUUCCUCUUAGCCUCUGGAUCUAGAAGGGACCAUAAGAGGAGUAGGCCCUGGUUCCUGCUGUCCUGGUGGCUGGGCCCAG,0.293
CUUCUUCCUGCUUCGGUGAUCCGAGGCUAGAGGGAGCUGCAUGGUAUCUUGUUACUAACUCAGUAUGUGUCAAUGUCAAAUACCAUGAAAUAAAGUCUGAAAACCUUAAA,0.299
GGUAGUACAAAAGGAUGUCUUUAAGGUGACAGAACUGGAAAAGAUACUCCCUGUGGGCAUUUUUAAAGAUGAUCAUUAAUCUAUAAGGAAUUUGCUAAGCUUUCUCUUGA,0.523
AGAUACAAGCUGCAGAGAAAAGUAAACUCUGCAAAGAACACUGGUAAUAAUUGUUCUGCAAAGGUUAAGAAAGCCACUGAGUCACAGUCUUCAUGGACUUUUGGGGUUUC,0.573
GAAUGUAAUGUAAGAAAAAUGUUCAUAAAUAUGGACAAAAAUGGUCCAGAUUACUUAGUUUAAAUAGCUACAUUUUCUUCUGUAUCUAAAACUUCGUUAGAAGAAAGUAA,0.609
CCUGUUUCGCUGUGGGAACAGGAGAGAAGGUGAUGAACAAACCACCAUCCGCUGCAUGGUCACAGUAGAGCCCCCGUGACUCGCCUGUCUUUGGGUCACCUGCAUUCCAU,9
UCAAAAGAGAUUUACUUUUUUAAAGGACUUUAUCUGAACAGAGAGAUAUAAUAUUUUUCCUAUUGGACAAUGGACUUGCAAAGCUUCACUUCAUUUUAAGAGCAAAAGAC,0.284
UCUGUAACUUUUGCUAAACACUUUAUACAUUUUUAAUGUUGAAAAGCAGUGUCUCCUGCCAGAACUCCUCACCCAGGAUGAAUGUGUUUACUCCACGCUGUAUAUCUUUC,0.435
GGAAUCCUUAGGCUGCCAGGAAGCCAGAGGGGUUUAGAGGUGCUCAGCUUUGAGCCCCAGUAUGCACUAUGCUUAAGCUCUGACGACUCUUGCGUGCAGCGAGGAGGUCC,1.35
AAAAAAUGGUUUAGAUAUAUUUAUAAUAAACUGACUUAAGAGUUUUCUAUAAGAAGAAAAUUAAGACCACUUAUUUGAAAACAAAGAUGAAAUGUCACCACCCGUUUGCG,0.564

# Block 2
# Target: RING finger protein unkempt homolog, zinc fingers 1-6, GST-SBP tag (UNK, Homo sapiens, UniProt Q9C0B0, residues 30-357)
# Technique: RNA Bind-n-Seq
# Form: RNA
# Medium: in vitro
# Concentration: not given
# Notes: RNA with constant flanks, human and mouse sites, ends assumed
# Baseline: input RNA pool
# Direction: higher = stronger binding
# Shared flanks, not repeated: GGGAGUUCUACAGUCCGACGAUC … CAACAGAGGAUUGAGCAUCA
# Construct (chain): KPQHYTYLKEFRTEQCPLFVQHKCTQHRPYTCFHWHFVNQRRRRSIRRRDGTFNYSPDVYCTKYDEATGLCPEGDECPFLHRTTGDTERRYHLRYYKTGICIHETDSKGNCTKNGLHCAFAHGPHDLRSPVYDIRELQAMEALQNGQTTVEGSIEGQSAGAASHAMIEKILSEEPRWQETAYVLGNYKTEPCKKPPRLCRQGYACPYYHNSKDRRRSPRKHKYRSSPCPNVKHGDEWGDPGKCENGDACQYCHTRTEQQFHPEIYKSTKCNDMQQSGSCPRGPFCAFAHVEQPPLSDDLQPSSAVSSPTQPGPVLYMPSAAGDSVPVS
Strand,bound/input enrichment
UUGGCCCAAGGACUUGGUACAGGAAGGGAGAAGGGCAGGUGGGCAGGGAGCAGACAGGGUCUGGCUUUGCCCAGAGGGCACGGGCUUUCCCACCUCUCAAAGAGACAAGGAAGCCACCUG,0.145 ratio
AUUGGAAAAUUUGACAAUUUUGAUUCUCACUGGUAUGUUUAAAAACUGAAUAAAAGGAAUAGAAUUUUUUUUUGAUAAAGGAUCACAAAACAAUUCUAAAACCUAACUGUUUUUACCAUU,0.374 ratio
GUAAUGGACGUCAACACUGCUCUACAAGAGGUGCUGAAGACCGCCCUCAUCCACGAUGGCCUAGCACGUGGCAUACGCGAAGCUGCCAAAGCCUUAGACAAGCGCCAAGCCCAUCUGUGU,0.124 ratio
CCCUUUGACGGGCCUUUUGAUGUGAACAGAUGUUUUCUAGGACAAACUAUAAGGACUAAUUUUAAACUUCAAACAUUCCACUUUUGUAAUUUGUUUUAAAUUGUUUUAUGUAUAGUAAGC,0.742 ratio
CCAGGGACCCCCACUCGGACACCUUCCAGAAUGGCGCCUGGAGCCCUGACUGCCAAACCCCCGCUUGCCCCCAAGCCGGGGACCACAGUGGCUUCAGGAGUGACUGCACGGGGUGGAGUA,0.131 ratio
ACUUUGAUUGACAAGGUCCCUCAAGAACUUACACAGCCAGCUUUGAGGAAAUCUAGACUGUUCUGACAACAGCAUCUGGAGUUGUAAUUGUUGUAAUUUUCUUCCUGUACUGUCUCAGUC,0.113 ratio
AACCUUCCAUCGUUGCCAGAUAUCCCACCUAUACAGUUGGAAGAUGCUGGCUCAAGUAGUUUAGAUAAUCUACUGAGUAGAUAUAUCUCAGGCAGUCAUCUACCCCCUCAGCCUACAAGU,0.409 ratio
CAAAAGCCAGUGGCACUGAGCACUGGUGGAAGAUCCACGAGGCCUGCAUGCUUGCUCUAGGCUCUGUGAAGUCUAUCAUCACUGACAGUGUGAAAAAUGGCAGGAUCCAUUUUGAUAUGC,0.101 ratio
CCUCUGUUUAGAAGUGUAGGCAAUACUAUUGAUCCUGUCAUUCUUUUCCAAAAAAUGGGAGUAGGUAAACUUGAGAUGUAUGUGCUUAAUCCAGUCAAGAGCAGCAAGGAAAUGCAGUAU,1.03 ratio
GACUUCCAGAAGGUGCCGAUGCAAACAGGCAUUUUGCCUGGCUGUGAGCCAUGCCACAAGAAGGUGUGUGCCCAUGGCACAUGCCAGCCCAGCAGCCAGGCAGGCUUCACCUGCGAGUGC,0.0458 ratio
AGGAAGUUUGUAGAUGAAGGAAUUAAGACAUUAGAAGAUCUCAGGAAAAAUGAAGAUAAACUGAACCAUCAUCAACGAAUUGGGCUGAAAUAUUUCGAGGACUUUGAAAAGAGAAUUCCU,0.617 ratio

# Block 3
# Target: Centromere-binding protein 1, full length, N-terminal tag (CBF1, Saccharomyces cerevisiae, UniProt P17106, residues 1-351)
# Sequence of UniProt P17106 (whole entry, looked up): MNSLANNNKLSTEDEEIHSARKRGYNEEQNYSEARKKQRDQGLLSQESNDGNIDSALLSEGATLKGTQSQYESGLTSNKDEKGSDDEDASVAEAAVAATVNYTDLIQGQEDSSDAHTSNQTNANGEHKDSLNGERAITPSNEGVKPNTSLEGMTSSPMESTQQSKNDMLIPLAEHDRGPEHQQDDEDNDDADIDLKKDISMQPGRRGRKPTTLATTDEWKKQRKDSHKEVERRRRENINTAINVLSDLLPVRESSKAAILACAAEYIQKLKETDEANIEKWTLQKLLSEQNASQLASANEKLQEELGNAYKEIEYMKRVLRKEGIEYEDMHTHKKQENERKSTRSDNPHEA
# Technique: protein-binding microarray
# Form: double-stranded DNA, one strand shown
# Medium: in vitro
# Concentration: 0.8 µM
# Notes: whole 60-bp probe, no competitor
# Direction: higher = stronger binding
# Shared flanks, not repeated: … GTCTTGATTCGCTTGACGCTGCTG
Strand,fluorescence intensity [a.u.]
CTACTAGTTAAAATGAACGTGTATTATATGGTATTC,530
GAATCATACCAACGTCACGTGTAAAGCTTTTGCTAG,9310
CTAATGCGTACCGCTTCTCAGCTGTTCTTGCCGTTC,527
CTAAATAATAAAATCGGGGTGACGCAAGTATGATTC,538
CTAAAGTGAAGCAATCAGTTGAGAGTGTAGCTATTC,486
GAAAGTGTACAAGGCCACGTTCTGTCACCGTCATAG,520
CTAAACAATGTTGACCGCGTGGACCCTCCCAATTTC,537
GAATGGGGCTTGTTTCACGTTTTCTGTCCCAAATAG,555
GAATTCGACACAGATCATGTGCTTGTTTCTCGTTAG,1920
GAAAAACAATGGCATCATGAAACGCTCATTGGATAG,498
CTATTTTTTGATGTCTTCGTGATATTTTGCAGATTC,575
TGTACGAAGCTATTAAGTGTGATTATAGTAGTTAGG,519
CTAGATCAATTCAACAACACCACCAGCAGCTCTTTC,558
GAATTGAAAAATACCATCGTGATTGCCTTCAAATAG,680
CTAGTCAGGTTTCACGTGGCAACTACAAGAAAATTC,3080
CTAGCAGTGGGTCGTGACATGAATATTCAAAAGTTC,1420
CTATACATTGAAAAGCACGTGACGTGACACCAATTC,17500
CTAAAAATTCCCCTTTCCGTGATGCGGGTAATATTC,515

# Block 4
# Target: Histone acetyltransferase KAT6A, winged helix 1, GST fusion (KAT6A, Homo sapiens, UniProt Q92794, residues 1-85)
# Technique: protein binding microarray
# Form: double-stranded DNA, one strand shown
# Medium: in vitro
# Concentration: not given
# Notes: 8-mer, flanks averaged, mean of 2 arrays, mostly near background
# Baseline: not given
# Direction: higher = stronger binding
# Construct (chain): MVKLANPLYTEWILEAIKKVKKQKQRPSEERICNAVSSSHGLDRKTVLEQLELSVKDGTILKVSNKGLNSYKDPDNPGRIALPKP
Strand,E-score
GAGGATTA,-0.11
ATCCCAAT,-0.157
GCCCTTAA,-0.0807
TAGGGCAA,-0.101
GAGAGAGA,-0.156
CATGACGA,-0.0415
ATATGTGC,0.129
ATGCTCGG,-0.0338
CACGAGCG,0.219
CGTGTTAG,0.242
ATTTATCG,0.0831
GGCCTACA,-0.0806
GTGAGCCA,-0.171
ATGATAGC,0.115
AGTCACAC,-0.233
AGCTGAGA,-0.195
GCCAGTAC,-0.0928
ATGTGCTC,-0.092

# Some of these lines once more (block 2):
Strand,bound/input enrichment
ACUUUGAUUGACAAGGUCCCUCAAGAACUUACACAGCCAGCUUUGAGGAAAUCUAGACUGUUCUGACAACAGCAUCUGGAGUUGUAAUUGUUGUAAUUUUCUUCCUGUACUGUCUCAGUC,0.113 ratio
AACCUUCCAUCGUUGCCAGAUAUCCCACCUAUACAGUUGGAAGAUGCUGGCUCAAGUAGUUUAGAUAAUCUACUGAGUAGAUAUAUCUCAGGCAGUCAUCUACCCCCUCAGCCUACAAGU,0.409 ratio
CAAAAGCCAGUGGCACUGAGCACUGGUGGAAGAUCCACGAGGCCUGCAUGCUUGCUCUAGGCUCUGUGAAGUCUAUCAUCACUGACAGUGUGAAAAAUGGCAGGAUCCAUUUUGAUAUGC,0.101 ratio
CCUCUGUUUAGAAGUGUAGGCAAUACUAUUGAUCCUGUCAUUCUUUUCCAAAAAAUGGGAGUAGGUAAACUUGAGAUGUAUGUGCUUAAUCCAGUCAAGAGCAGCAAGGAAAUGCAGUAU,1.03 ratio
GACUUCCAGAAGGUGCCGAUGCAAACAGGCAUUUUGCCUGGCUGUGAGCCAUGCCACAAGAAGGUGUGUGCCCAUGGCACAUGCCAGCCCAGCAGCCAGGCAGGCUUCACCUGCGAGUGC,0.0458 ratio
